Measurements gathered from unrelated publications.
Each numbered part is a random draw from the data of one study; scales do not carry over between parts.
Chain of UniProt Q13464 (whole entry, looked up): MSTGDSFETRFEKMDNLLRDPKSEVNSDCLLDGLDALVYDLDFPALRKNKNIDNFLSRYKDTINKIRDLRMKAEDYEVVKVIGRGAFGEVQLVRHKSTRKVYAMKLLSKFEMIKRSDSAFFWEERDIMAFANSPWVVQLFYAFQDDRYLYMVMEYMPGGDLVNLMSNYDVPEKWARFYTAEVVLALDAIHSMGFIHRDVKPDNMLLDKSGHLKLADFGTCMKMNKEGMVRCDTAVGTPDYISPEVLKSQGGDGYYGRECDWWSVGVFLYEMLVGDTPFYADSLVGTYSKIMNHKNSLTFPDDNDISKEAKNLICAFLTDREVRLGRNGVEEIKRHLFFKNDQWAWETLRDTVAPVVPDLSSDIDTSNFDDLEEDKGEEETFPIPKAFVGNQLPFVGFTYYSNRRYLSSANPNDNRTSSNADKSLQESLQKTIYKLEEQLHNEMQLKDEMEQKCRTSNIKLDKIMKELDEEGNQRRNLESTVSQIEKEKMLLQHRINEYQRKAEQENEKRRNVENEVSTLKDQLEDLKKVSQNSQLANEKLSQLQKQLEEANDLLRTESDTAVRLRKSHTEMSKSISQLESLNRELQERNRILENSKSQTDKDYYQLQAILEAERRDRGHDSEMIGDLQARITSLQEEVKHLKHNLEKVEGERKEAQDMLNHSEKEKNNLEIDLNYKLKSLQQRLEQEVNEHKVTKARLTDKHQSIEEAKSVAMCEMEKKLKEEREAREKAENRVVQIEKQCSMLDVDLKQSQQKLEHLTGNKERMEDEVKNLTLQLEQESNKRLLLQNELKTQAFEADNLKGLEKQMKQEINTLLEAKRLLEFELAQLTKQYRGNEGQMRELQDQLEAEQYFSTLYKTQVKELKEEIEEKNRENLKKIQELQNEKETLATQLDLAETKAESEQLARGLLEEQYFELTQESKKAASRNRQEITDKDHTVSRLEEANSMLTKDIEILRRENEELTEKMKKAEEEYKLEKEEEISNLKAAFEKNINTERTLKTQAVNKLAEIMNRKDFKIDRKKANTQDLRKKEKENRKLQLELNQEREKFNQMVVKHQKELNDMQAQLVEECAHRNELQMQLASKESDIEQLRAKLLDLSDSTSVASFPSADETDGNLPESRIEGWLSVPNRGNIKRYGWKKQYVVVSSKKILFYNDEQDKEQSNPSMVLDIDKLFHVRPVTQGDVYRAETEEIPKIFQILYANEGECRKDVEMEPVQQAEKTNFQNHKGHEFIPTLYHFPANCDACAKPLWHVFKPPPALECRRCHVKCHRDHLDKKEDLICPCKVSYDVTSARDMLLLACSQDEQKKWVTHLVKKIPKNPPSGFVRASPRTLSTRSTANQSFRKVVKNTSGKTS
Chain of UniProt P53350 (whole entry, looked up): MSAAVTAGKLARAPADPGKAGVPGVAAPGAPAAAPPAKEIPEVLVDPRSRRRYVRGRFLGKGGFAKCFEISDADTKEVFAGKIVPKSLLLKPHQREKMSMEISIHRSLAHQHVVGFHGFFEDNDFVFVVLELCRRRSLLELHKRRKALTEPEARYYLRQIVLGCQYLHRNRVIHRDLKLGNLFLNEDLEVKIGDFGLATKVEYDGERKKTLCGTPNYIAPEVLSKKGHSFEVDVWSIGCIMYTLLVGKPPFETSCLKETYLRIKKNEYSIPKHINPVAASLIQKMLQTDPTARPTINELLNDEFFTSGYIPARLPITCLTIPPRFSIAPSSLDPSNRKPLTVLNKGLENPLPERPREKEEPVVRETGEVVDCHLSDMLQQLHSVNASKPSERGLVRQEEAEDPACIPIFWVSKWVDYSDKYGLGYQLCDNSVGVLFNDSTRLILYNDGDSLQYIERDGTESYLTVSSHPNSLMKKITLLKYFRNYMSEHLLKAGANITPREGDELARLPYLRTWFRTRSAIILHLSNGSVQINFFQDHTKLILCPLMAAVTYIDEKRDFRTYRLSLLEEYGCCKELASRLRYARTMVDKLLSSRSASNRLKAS
Chain of UniProt O95382 (whole entry, looked up): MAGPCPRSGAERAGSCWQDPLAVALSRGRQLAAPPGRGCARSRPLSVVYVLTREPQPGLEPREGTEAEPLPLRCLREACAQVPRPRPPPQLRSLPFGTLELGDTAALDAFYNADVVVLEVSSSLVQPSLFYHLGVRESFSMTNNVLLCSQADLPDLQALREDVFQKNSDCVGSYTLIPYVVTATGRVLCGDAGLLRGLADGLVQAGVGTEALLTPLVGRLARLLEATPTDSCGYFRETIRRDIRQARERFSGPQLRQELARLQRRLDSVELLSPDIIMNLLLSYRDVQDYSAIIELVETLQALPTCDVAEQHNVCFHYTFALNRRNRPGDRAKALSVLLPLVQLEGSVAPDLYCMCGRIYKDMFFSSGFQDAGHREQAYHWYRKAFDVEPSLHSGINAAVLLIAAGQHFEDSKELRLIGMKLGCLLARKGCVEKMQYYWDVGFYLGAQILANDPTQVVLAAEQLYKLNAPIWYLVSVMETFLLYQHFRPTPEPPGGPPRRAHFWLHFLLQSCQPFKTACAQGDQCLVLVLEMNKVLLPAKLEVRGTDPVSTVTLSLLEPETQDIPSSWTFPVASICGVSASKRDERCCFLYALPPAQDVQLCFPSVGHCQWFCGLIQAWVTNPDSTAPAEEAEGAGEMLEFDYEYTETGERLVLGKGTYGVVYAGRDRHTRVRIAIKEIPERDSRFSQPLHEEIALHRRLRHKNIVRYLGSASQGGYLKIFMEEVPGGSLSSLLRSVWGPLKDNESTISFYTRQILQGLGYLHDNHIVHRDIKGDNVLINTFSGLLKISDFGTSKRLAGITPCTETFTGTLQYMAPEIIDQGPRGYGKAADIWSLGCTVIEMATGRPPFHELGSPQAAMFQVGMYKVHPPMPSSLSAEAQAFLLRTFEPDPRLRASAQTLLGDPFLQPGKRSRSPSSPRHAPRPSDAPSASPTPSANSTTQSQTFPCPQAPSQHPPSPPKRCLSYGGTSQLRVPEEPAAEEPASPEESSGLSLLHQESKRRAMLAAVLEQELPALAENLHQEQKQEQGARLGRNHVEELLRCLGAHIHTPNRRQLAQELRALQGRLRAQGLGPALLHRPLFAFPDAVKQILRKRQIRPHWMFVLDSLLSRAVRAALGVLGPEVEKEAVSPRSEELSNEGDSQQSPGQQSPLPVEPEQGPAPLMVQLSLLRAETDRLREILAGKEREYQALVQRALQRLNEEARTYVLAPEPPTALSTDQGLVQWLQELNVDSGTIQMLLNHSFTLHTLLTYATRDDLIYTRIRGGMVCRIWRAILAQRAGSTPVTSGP
Chain of UniProt Q9H4B4 (whole entry, looked up): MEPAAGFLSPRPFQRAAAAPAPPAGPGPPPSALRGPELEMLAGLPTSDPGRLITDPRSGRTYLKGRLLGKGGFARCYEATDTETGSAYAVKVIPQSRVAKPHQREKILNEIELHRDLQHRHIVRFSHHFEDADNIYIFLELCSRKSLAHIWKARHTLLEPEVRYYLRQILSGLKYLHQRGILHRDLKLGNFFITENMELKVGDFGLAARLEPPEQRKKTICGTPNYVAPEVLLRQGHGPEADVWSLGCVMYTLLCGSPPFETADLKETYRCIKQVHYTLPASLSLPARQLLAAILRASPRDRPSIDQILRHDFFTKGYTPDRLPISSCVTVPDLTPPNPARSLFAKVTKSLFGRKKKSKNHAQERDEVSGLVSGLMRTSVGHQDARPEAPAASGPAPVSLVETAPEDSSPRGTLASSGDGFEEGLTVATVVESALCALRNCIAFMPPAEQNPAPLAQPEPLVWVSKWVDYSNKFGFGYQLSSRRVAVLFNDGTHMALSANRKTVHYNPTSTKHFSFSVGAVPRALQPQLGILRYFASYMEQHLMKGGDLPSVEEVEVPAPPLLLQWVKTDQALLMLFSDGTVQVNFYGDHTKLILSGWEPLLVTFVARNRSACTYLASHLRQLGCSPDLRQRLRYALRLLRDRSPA
Chain of UniProt Q12851 (whole entry, looked up): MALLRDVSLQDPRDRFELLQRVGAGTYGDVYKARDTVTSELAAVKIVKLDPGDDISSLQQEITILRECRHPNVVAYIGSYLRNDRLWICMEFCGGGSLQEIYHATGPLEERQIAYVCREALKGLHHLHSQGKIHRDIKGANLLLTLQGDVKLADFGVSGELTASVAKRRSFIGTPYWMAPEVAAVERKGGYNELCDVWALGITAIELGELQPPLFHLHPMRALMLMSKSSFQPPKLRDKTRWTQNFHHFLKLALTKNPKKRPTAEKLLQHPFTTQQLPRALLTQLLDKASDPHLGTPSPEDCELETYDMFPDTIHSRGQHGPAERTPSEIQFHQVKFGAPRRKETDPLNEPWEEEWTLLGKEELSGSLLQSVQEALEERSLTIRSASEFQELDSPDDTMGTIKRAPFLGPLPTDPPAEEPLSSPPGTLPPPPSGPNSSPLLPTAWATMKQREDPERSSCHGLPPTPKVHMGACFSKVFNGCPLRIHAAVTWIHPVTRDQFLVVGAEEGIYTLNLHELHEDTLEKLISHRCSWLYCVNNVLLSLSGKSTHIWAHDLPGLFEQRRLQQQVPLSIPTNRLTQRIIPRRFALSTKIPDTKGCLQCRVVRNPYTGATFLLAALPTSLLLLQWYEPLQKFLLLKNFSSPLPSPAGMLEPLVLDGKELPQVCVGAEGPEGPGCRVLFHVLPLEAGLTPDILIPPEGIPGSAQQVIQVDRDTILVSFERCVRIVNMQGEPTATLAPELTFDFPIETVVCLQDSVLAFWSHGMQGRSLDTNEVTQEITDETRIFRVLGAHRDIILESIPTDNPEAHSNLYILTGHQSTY
Chain of UniProt P06493 (whole entry, looked up): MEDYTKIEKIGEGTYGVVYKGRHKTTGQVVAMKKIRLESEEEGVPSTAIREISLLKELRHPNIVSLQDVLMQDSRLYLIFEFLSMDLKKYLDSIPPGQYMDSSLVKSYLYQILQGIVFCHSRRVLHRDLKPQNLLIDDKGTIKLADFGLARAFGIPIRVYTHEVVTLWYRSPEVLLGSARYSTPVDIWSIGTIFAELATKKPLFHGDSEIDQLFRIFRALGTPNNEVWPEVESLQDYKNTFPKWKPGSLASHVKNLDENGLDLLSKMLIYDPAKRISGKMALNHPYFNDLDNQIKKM

Study 1
SMILES: O=C1CCc2cc(Nc3cc(OC4CCOCC4)c([N+](=O)[O-])cc3Cl)ccc2N1
Observed: cell-free assay
Technique: competition with immobilised ligand
Concentration: 1 µM
target	remaining binding [%]
MAP3K19 (Homo sapiens, UniProt Q56UN5)	100
MAP3K6 (Homo sapiens, UniProt O95382)	91
MAP3K4 (Homo sapiens, UniProt Q9Y6R4)	85
MAP4K2 (Homo sapiens, UniProt Q12851)	95
PLK1 (Homo sapiens, UniProt P53350)	100
NEK3 (Homo sapiens, UniProt P51956)	100
EPHA7 (Homo sapiens, UniProt Q15375)	75
STK11 (Homo sapiens, UniProt Q15831)	100
STK32C (Homo sapiens, UniProt Q86UX6)	83
MYLK2 (Homo sapiens, UniProt Q9H1R3)	90

Study 2
Target: TAR DNA-binding protein 43, full length, His tag (TARDBP, Homo sapiens, UniProt Q13148, residues 1-414)
Technique: RNA Bind-n-Seq
Molecule type: RNA
Matrix: in vitro
Concentration: 20 nM
Notes: 6-mer, flanks averaged, single round
With: 150 mM LiCl
Reference: input library
Reading: higher = stronger binding
Sequence	6-mer enrichment (R)
UAACAU	0.881
UCCGCU	0.881
GAUCAA	0.824
AGAUUU	0.89
AGGCGU	1.01
AGUCCA	0.827
AUGAAA	0.882
GUAGAU	1.05

Study 3
Target: Prothrombin, mature alpha-thrombin (F2, Homo sapiens, UniProt P00734)
Technique: aptamer microarray, sandwich
Molecule type: DNA with 2'F-ANA
Matrix: in vitro
Concentration: 200 nM
Notes: whole 15-mer aptamer, many near background
With: Cy3 exosite-II aptamer, 400 nM
Reading: higher = stronger binding
Sequence: GGTTGGTGTGGTTGG
Modification	mean fluorescence intensity [a.u.]
2'F-ANA at 2 3 5 6 7 8 11 12 15	177
2'F-ANA at 1 4 5 7 8 11 13	64.2
2'F-ANA at 7 8 11 12 14 15	278
2'F-ANA at 1 2 4 5 6 7 8 10 12 14 15	47.7
2'F-ANA at 3 4 5 6 7 8 10 11 12 14	49.5
2'F-ANA at 1 2 3 5 6 8 9 10 11 14 15	90.4
2'F-ANA at 2 4 6 8 11 13 15	194
2'F-ANA at 2 7 9	503

Study 4
SMILES: Cc1nc(Nc2ncc(C(=O)Nc3c(C)cccc3Cl)s2)cc(N2CCN(CCO)CC2)n1
Observed: enzyme activity
Mode: inhibitor
Concentration: 0.5 µM
Reference: control
target	remaining activity [%]
PRKG2 (Homo sapiens, UniProt Q13237)	104
CDC42BPB (Homo sapiens, UniProt Q9Y5S2)	98.8
PNCK (Homo sapiens, UniProt Q6P2M8)	102
ROCK1 (Homo sapiens, UniProt Q13464)	105
DDR2 (Homo sapiens, UniProt Q16832)	0.242
MAPK11 (Homo sapiens, UniProt Q15759)	76.6
MAPK14 (Homo sapiens, UniProt Q16539)	36.5
GRK4 (Homo sapiens, UniProt P32298)	94.1
CLK3 (Homo sapiens, UniProt P49761)	95.2
Cyclin-dependent kinase 1, with cyclin A (CDK1, Homo sapiens, UniProt P06493)	96.3
MAPK1 (Homo sapiens, UniProt P28482)	93.3
MARK4 (Homo sapiens, UniProt Q96L34)	90.9
PLK3 (Homo sapiens, UniProt Q9H4B4)	105
